Experimental data of several laboratories.
Lines come from different studies, so protocols differ. Numbers after ± are the reported error.

SMILES	test	system	conditions	scale	quantity	result
CC1(C)C(=CC=CC=CC=CC2=[N+](CCCCCC(=O)NCCCC[C@@H]3NC(=O)[C@@H](Cc4ccccc4)NC(=O)[C@H](CC(=O)O)NC(=O)CNC(=O)[C@H](CCCNC(=N)N)NC3=O)c3ccc4ccccc4c3C2(C)C)N(CCCCS(=O)(=O)[O-])c2ccc3ccccc3c21	fluorescence imaging	BALB/c nude mice, orthotopic U87MG-luc glioma	intravenous, 30 nmol, 72 h		tumour detection	not detected
COc1ccc(Nc2nc(Nc3ccc(OCCOCC[18F])cc3)ncc2Br)cc1		S180 tumour-bearing mice	dose not given, 30 min, together with: PF-562271 33 mg/kg po	relative to: no blocker	tumour uptake reduction	~88%
O=C(Cc1ccc(F)cc1)NCCOc1ccc(-c2ccc(F)cc2)nn1		mice MC38 colon tumour	oral, 20 mg/kg, 21 days, together with: anti-PD-L1 antibody		tumour growth inhibition	74.5%
COc1cc2c(Oc3ccc(Nc4nn(C)cc4C(=O)NC4CCCCC4)cc3F)ccnc2cc1OCCCCCCC(=O)NO		BALB/c nude mice, HCT-116 xenograft	intraperitoneal, 1 to 20 mg/kg, every 3 days, five doses	relative to: vehicle	tumour volume	decreased
CC(=O)[CH](C(C)=O)[Pt-2]1([S+](C)C)[O]C(C)=CC(C)=[O+]1 (centres unmarked)		MCF7, BALB/c nude mice, xenograft	intravenous, 5 mg/kg, 30 days, single dose		tumour volume	168 ± 40.2 mm³
CCOc1cc(C(C)(C)C)ccc1C1=N[C@@H](c2ccc(Cl)cc2)[C@@H](c2ccc(Cl)cc2)N1C(=O)N1CCN(CC(=O)NCCOCCOCCOCCNC(=O)CN2CCN(C(=O)N3C(c4ccc(C(C)(C)C)cc4OCC)=N[C@@H](c4ccc(Cl)cc4)[C@H]3c3ccc(Cl)cc3)CC2=O)C(=O)C1		nude mice, A549 xenograft	intraperitoneal, 20 mg/kg twice daily, 21 days		tumour growth inhibition	45.6%
CCc1nnc(NS(=O)(=O)c2ccc(NC(=S)NC(=O)/C=C/c3ccc(F)cc3)cc2)s1		NXS2 allograft, A/J mice	intraperitoneal, 20 mg/kg daily, 3 weeks, days 17 to 20	relative to: vehicle	tumour volume	decreased
COc1cc(OC)c(F)c(/C=C/c2cnc3ccn(S(=O)(=O)c4cn(CCF)cn4)c3n2)c1F		nude mice, SNU-16 xenograft	oral, 10 mg/kg once daily, 21 days		tumour growth	inhibited
N#Cc1cccc(-c2ccc(=O)n(Cc3cccc(-c4ncc(OCC5CCN(CC(=O)NCCOCCNc6ccc7c(c6)C(=O)N(C6CCC(=O)NC6=O)C7=O)CC5)cn4)c3)n2)c1 (centres unmarked)		mice, EBC-1 xenograft	intraperitoneal, 10 mg/kg once daily, 10 days		tumour growth inhibition	68.2%
CCc1noc(CC)c1C(=O)O[C@H]1C(C)=C[C@]23C(=O)[C@@H](C=C(CO)[C@@H](O)[C@]12O)[C@H]1[C@@H](C[C@H]3C)C1(C)C		SKH1 mice, UV-induced skin tumours	topical, dose not given, gel, two consecutive days		tumour clearance	> 50%
C[N+]1=C(C=CC=CC=C2N(CCCCCC(=O)NCCCC[C@H](NC(=O)[C@@H](CCC(=O)O)NC(=O)[C@@H](CCC(=O)O)NC(=O)[C@@H](CCC(=O)O)NC(=O)CCCCCNC(=O)C3CCC(CNC(=O)CC[C@H](NC(=O)N[C@@H](CCC(=O)O)C(=O)O)C(=O)O)CC3)C(N)=O)c3ccc4ccccc4c3C2(C)C)C(C)(C)c2c1ccc1ccccc21 (some centres unmarked)	FMT imaging	mice bearing PC-3 flu tumours, PC-3 flu tumour	1 nmol		tumour uptake	4.51 ± 0.77 pmol/g
Cc1cc(N)c2ccccc2[n+]1CCCCCCCCCCCCCC[n+]1c(C)cc(N)c2ccccc21		NOD/SCID mice, NB12 neuroblastoma xenograft	intraperitoneal, 4.5 mg/kg every other day, 10 days	relative to: vehicle	tumour weight reduction	65%
Cc1ccc2oc(-c3c4c(N)n[nH]c(=O)c4nn3-c3ccc(NC(=O)/C=C/CN(C)C)cc3)c(C)c2c1		BALB/c nude mice, NCI-H1581 xenograft	intraperitoneal, 10 mg/kg once daily, 20 days		tumour growth inhibition	74.4%
O=C(Nc1ccc(C(F)(F)F)cc1Cl)c1cc(Cl)ccc1O	immunohistochemistry	mice LuCaP sample A PDX	oral, 150 mg/kg		tumour AR-V7 and Ki67	inhibited
CCCCCCCCn1c(-c2cccnc2)nc(-c2ccc(C)cc2)c1-c1ccc(C)cc1		Ehrlich ascites carcinoma-bearing mice	intraperitoneal, 50 mg/kg every other day, day 26	relative to: vehicle	tumour size reduction	~50%
COc1cccc2c1C(=O)c1c(O)c3c(c(O)c1C2=O)C[C@@](O)(C(=O)CO)C[C@@H]3O[C@H]1C[C@H](N)[C@@H](O)[C@H](C)O1		nude mice, KB xenograft	intravenous, 8 mg/kg single, day 25		tumour volume	1300 mm³
C[C@@H](NC(=O)Cc1ccc(Cl)c(SC2C(=O)CC(c3c(Cl)cccc3Cl)CC2=O)c1)c1cccc2ccccc12 (some centres unmarked)		C57BL/6 mice, B16-F10 allograft	oral or intraperitoneal, 100 mg/kg once daily		tumour growth	no inhibition
COC(=O)N[C@H]1CC[C@@H](Nc2cc(NCc3ccccc3F)n3ncc(C(C)C)c3n2)CC1		mice with HCT-116 xenograft	oral, 15 mg/kg twice daily, 14 days		tumour growth delay	6.6 ± 1.2 days
CN1CCc2cc(Nc3ncc(C(F)(F)F)c(NCc4cc[nH]n4)n3)ccc2C1		mice, GL261 glioma xenograft	oral, 50 mg/kg daily		tumour growth inhibition	56.1%
CCCCCc1ccc(S(=O)(=O)N2CC2C(=O)OC)cc1 (centres unmarked)		mice, Lewis lung carcinoma	intraperitoneal, 5 to 15 mg once daily, 16 days		tumour growth inhibition	65 to 71%

Excerpt of the above:
SMILES	test	system	conditions	scale	quantity	result
CCOc1cc(C(C)(C)C)ccc1C1=N[C@@H](c2ccc(Cl)cc2)[C@@H](c2ccc(Cl)cc2)N1C(=O)N1CCN(CC(=O)NCCOCCOCCOCCNC(=O)CN2CCN(C(=O)N3C(c4ccc(C(C)(C)C)cc4OCC)=N[C@@H](c4ccc(Cl)cc4)[C@H]3c3ccc(Cl)cc3)CC2=O)C(=O)C1		nude mice, A549 xenograft	intraperitoneal, 20 mg/kg twice daily, 21 days		tumour growth inhibition	45.6%
CCc1nnc(NS(=O)(=O)c2ccc(NC(=S)NC(=O)/C=C/c3ccc(F)cc3)cc2)s1		NXS2 allograft, A/J mice	intraperitoneal, 20 mg/kg daily, 3 weeks, days 17 to 20	relative to: vehicle	tumour volume	decreased
COc1cc(OC)c(F)c(/C=C/c2cnc3ccn(S(=O)(=O)c4cn(CCF)cn4)c3n2)c1F		nude mice, SNU-16 xenograft	oral, 10 mg/kg once daily, 21 days		tumour growth	inhibited
